Measurements pooled from the literature.
A part holds a random share of what one study measured.

Sample 1
Target: Fragile X messenger ribonucleoprotein 1, C-terminal low-complexity region (Fmr1, Mus musculus, UniProt P35922)
Method: RNA Bind-n-Seq
Form: RNA
Medium: in vitro
Tested at: 200 nM
Setting: whole 134-nt RNA, ends assumed
Together with: 150 mM LiCl
Baseline: input library
Reading: higher = stronger binding
All molecules: 7-deaza-guanosine replaces G
| Sequence | log2 enrichment |
| --- | --- |
| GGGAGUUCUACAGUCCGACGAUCUCCUGUGCUACACAUCGUAUGUACCGAAUCGGGUUUUUUUGGGAAAGGGAAAAAAAGGGAAAGUAUUAUGUUACGCCGUUCGGAUCUGCAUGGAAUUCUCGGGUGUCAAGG | -1.03 |
| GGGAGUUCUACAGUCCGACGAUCGUCCUGUGCUACACAUCGUAUGUACCGAAUCGGGGAGGGGAAAAAAAGGGGAAAGGGGAAAGUAUUAUGUUACGCCGUUCGGAUCUGCACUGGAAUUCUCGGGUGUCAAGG | 1.41 |
| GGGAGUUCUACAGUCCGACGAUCUCCCCCCUAUUGGAAGUAAAGGGGAACAUAGAACUGAAGAGACCUCUGAUUAAGGCCCCUUCCCAGCUGCCUCUCUCAGGAAGCAGACUCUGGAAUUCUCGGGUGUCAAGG | 0.784 |
| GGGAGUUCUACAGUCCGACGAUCCCUGUGCUACACAUCGUAUGUACCGAAUCGGUUUUUUGGGGUUUUUUGGGGUUUUUUGGGAAAGUAUUAUGUUACGCCGUUCGGAUCUGCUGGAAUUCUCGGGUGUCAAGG | -0.655 |
| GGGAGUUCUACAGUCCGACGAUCUGGGAGGUGGCUUUUGUUUAUUUUUUUAGCUCAUUUCCAGGGGUGGGAAUUUUUUUUUAAUAUGUGUCAUGAAUAAAGUUGUUUUUGAAAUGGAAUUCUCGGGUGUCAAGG | -0.0571 |
| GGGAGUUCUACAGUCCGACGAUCAAGUCCUGUGCUACACAUCGUAUGUACCGAAUCGGUUUUGGGGUUUUGGUUUUGGGAAAGUAUUAUGUUACGCCGUUCGGAUCUGCACUUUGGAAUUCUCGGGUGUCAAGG | -1.92 |
| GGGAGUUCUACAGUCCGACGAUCUCCUGUGCUACACAUCGUAUGUACCGAAUCGGGGAAAAAAAGGGGUGGGGUUUUUGGGGAAAGUAUUAUGUUACGCCGUUCGGAUCUGCAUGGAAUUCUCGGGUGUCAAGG | -1.96 |
| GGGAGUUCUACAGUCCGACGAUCUGGGAGGUGGAUUUUGUUUAUUUUUUUAGCUCAUUUCCAGGGUUGGGAAUUUUUUUUUAAUAUGUGUCAUGAAUAAAGUUGUUUUUGAAAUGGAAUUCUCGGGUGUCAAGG | -1.07 |

Sample 2
Target: Phosphate system positive regulatory protein PHO4, full length, GST-tagged (PHO4, Saccharomyces cerevisiae, UniProt P07270, residues 1-312)
Method: competition protein-binding microarray
Form: double-stranded DNA, one strand shown
Medium: in vitro
Tested at: 2 µM
Setting: whole 60-bp probe, lowest competitor level
Together with: Cbf1 competitor, 0.05 µM
Reading: higher = stronger binding
Residues (chain): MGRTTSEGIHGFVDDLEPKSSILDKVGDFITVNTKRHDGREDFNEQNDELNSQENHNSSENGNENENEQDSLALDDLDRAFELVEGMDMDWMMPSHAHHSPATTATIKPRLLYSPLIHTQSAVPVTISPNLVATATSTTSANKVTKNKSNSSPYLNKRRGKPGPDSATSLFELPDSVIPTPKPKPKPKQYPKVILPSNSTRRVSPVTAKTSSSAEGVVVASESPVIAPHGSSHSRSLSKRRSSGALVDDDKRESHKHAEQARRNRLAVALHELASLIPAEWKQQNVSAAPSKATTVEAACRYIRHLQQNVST
| Sequence | fluorescence intensity [a.u.] |
| --- | --- |
| CGACTGAAAAACTCAAACGTGCTTTACCGCCAAGCAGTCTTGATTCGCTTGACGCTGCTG | 11700 |
| CATACCCAACCTTGGGGGGTGGGTGAAGATATTTGTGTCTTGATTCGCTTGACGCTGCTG | 5460 |
| CATACGCGTTCGCTTCACGTGATGGTCCTTTTCCATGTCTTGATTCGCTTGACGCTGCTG | 12500 |
| GTCTTGTCTCATTGTTCTGTGGGTGTCCCCACTTCAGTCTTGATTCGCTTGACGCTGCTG | 4580 |
| CAACATCAGCGCTGTCATGCGGTCTTTGAAATTCCTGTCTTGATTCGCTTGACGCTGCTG | 6030 |
| AAAGCGGTAATTTGTCACGAGACTTCACATATCTATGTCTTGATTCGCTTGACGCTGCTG | 7270 |
| AATAGCGAGGGTCGCCCCGTGGGACATGCTACTGAGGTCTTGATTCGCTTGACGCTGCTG | 11400 |
| GAACTGCCACCTCACCACGTGTGTTCCTCGCAAGCCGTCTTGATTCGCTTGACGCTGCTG | 15300 |
| CTTTGCCGCCTGAAACACGTGTTGAACAAGCCGCCCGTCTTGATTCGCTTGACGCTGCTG | 15000 |
| CTACTACAGATATTACATGTGGCGAAAAAGACAAGAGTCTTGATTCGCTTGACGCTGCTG | 9010 |
| GTCTTGTCTCATTGCAAAGTGGGTGTCCCCACTTCAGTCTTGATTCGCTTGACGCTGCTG | 5210 |
| GAGTGCTCAGAAAACCCCGTGGATTACCCAACGGTCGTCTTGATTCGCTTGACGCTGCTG | 7050 |
| TAACGGCTATCCCATCACGCTTTCACCGAGGAGACCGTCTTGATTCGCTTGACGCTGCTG | 6030 |
| GTCTTGTCTCATTGCCATGTGGGTGTCCCCACTTCAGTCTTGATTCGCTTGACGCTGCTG | 10600 |
| CCCAGCAAGCGTTCATCCGTGACGGGTTCAGCAAGGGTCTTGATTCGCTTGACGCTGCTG | 4100 |
| GAGTGGGCTGGCGGCAGCATGCAGAGCGTTATCGCTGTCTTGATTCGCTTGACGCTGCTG | 6590 |
| GCAATACATGAGAACTTCGTGCCAGCAAGGCCCAGTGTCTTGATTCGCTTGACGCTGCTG | 6070 |
| ATGTACCGTTCAAGCCACCTGACATTATACCACCAGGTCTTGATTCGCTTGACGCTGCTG | 5590 |
| CATACCCAACCTTGGCCAGTGGGTGAAGATATTTGTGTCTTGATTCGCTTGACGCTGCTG | 3440 |

Sample 3
Target: Sal-like protein 4, full length isoform A (SALL4, Homo sapiens, UniProt Q9UJQ4, residues 1-1053)
Sequence of UniProt Q9UJQ4 (whole entry, looked up): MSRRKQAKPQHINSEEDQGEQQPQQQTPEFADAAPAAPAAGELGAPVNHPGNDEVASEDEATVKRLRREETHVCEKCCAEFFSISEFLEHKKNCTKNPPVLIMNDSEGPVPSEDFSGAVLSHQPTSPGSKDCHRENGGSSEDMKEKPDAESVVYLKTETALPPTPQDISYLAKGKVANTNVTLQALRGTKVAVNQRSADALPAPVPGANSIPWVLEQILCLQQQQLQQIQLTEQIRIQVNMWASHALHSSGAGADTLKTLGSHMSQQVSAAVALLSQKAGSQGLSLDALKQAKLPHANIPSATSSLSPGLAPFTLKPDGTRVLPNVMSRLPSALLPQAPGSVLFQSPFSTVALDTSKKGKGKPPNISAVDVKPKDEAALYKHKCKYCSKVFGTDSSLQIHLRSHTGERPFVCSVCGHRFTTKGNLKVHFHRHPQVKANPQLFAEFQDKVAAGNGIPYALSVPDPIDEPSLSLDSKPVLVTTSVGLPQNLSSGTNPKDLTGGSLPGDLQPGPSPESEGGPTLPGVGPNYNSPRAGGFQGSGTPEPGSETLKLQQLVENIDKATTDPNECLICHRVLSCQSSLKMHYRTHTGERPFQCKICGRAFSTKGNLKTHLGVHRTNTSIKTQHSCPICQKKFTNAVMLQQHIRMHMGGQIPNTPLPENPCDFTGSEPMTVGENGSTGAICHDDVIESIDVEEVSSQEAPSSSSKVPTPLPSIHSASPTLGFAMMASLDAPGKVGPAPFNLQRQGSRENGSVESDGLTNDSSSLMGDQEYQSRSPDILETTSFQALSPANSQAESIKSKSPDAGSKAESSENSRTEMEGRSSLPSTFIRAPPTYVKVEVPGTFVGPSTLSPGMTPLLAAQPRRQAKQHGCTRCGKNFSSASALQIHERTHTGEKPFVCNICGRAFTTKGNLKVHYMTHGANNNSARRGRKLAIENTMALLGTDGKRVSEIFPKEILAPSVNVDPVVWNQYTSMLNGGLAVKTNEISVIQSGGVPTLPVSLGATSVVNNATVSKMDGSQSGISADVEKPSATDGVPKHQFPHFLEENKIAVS
Method: universal PBM
Form: double-stranded DNA, one strand shown
Medium: in vitro
Tested at: 600 nM
Setting: 8-mer, flanks averaged, mean of replicates
Reading: higher = stronger binding
| Sequence | E-score |
| --- | --- |
| ATCGCTTG | -0.0339 |
| AGCATAGA | 0.0224 |
| ACACGAGG | -0.18 |
| ATACTTAG | 0.172 |
| CTACGAGA | -0.0145 |
| GGACTAGA | -0.0837 |
| CCCTAGGC | -0.234 |
| AAAAGACC | 0.00593 |
| AAACCTCT | 0.0508 |
| CACGTGCA | -0.0999 |
| AAAGCCTC | -0.105 |
| CTATGTAA | 0.247 |
| GCTCCGTA | -0.114 |
| ATTGGACG | 0.063 |
| ACGTTCAC | -0.0572 |
| CCAAGTGG | -0.137 |
| AGCTGTTA | 0.059 |
| CATACGCA | 0.148 |
| TAGCTCGA | -0.116 |
| TGTTAACA | 0.267 |
| ATCACTTG | 0.0831 |
| ACGCACAG | -0.105 |

Sample 4
Target: Histone acetyltransferase KAT6A, winged helix 2, GST fusion (KAT6A, Homo sapiens, UniProt Q92794, residues 85-181)
Method: protein binding microarray
Form: double-stranded DNA, one strand shown
Medium: in vitro
Tested at: not given
Setting: 8-mer, flanks averaged, mean of 2 arrays, mostly near background
Baseline: not given
Reading: higher = stronger binding
Construct (chain): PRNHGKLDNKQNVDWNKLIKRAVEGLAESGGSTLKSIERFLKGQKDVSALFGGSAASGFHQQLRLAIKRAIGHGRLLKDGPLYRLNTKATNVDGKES
| Sequence | E-score |
| --- | --- |
| CAGCTATA | -0.108 |
| TGCGACAA | 0.0805 |
| AGTAGGGC | 0.0279 |
| CAGCTGCC | 0.115 |
| CCCCGTCG | -0.013 |
| AGACGTAC | -0.0814 |
| AGATTAAA | 0.272 |
| ATCCCAGG | 0.0111 |
| ACCTAAAA | -0.165 |
| GTGTGATA | 0.0842 |
| CCTGGGCG | 0.103 |
| CACATTTA | -0.0866 |
| CAACACAG | 0.0929 |
| CGATCATA | 0.0717 |
| CTGGAAAA | 0.0435 |
| AGACACAG | 0.151 |
| ATGAAATA | 0.116 |
| CGCGCGGC | 0.279 |
| AACGTTCC | -0.252 |
| AGAATAGG | -0.0337 |
| AGAGTTAC | -0.203 |
| AGCGCTAA | 0.113 |
| AAGCGCTA | 0.166 |
| ATGACGTA | -0.0524 |

A few entries again (sample 1):
| Sequence | log2 enrichment |
| --- | --- |
| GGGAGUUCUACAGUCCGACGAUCUGGGAGGUGGAUUUUGUUUAUUUUUUUAGCUCAUUUCCAGGGUUGGGAAUUUUUUUUUAAUAUGUGUCAUGAAUAAAGUUGUUUUUGAAAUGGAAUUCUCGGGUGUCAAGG | -1.07 |
| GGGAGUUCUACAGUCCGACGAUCUCCUGUGCUACACAUCGUAUGUACCGAAUCGGGUUUUUUUGGGAAAGGGAAAAAAAGGGAAAGUAUUAUGUUACGCCGUUCGGAUCUGCAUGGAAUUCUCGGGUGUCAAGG | -1.03 |
| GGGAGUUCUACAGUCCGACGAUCUCCCCCCUAUUGGAAGUAAAGGGGAACAUAGAACUGAAGAGACCUCUGAUUAAGGCCCCUUCCCAGCUGCCUCUCUCAGGAAGCAGACUCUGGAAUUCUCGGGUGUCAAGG | 0.784 |
| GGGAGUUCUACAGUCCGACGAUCUGGGAGGUGGCUUUUGUUUAUUUUUUUAGCUCAUUUCCAGGGGUGGGAAUUUUUUUUUAAUAUGUGUCAUGAAUAAAGUUGUUUUUGAAAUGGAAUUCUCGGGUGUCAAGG | -0.0571 |
